Measurements of several laboratories.
Lines come from different studies, so protocols differ. ± gives the spread as reported.
Mapk1: Mitogen-activated protein kinase 1 (Mapk1, Rattus norvegicus, UniProt P63086)
Chain of UniProt P63086 (whole entry, looked up): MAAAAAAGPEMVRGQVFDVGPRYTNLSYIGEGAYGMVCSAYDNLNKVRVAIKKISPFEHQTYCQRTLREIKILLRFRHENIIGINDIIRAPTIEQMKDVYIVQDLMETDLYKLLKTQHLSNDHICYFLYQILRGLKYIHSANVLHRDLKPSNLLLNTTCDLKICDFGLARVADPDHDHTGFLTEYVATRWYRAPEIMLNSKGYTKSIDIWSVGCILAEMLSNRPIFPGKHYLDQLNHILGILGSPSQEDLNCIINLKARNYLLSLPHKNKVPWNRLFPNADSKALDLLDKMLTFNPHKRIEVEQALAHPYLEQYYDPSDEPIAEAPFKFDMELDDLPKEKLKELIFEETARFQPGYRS
Chain of UniProt O15393 (whole entry, looked up): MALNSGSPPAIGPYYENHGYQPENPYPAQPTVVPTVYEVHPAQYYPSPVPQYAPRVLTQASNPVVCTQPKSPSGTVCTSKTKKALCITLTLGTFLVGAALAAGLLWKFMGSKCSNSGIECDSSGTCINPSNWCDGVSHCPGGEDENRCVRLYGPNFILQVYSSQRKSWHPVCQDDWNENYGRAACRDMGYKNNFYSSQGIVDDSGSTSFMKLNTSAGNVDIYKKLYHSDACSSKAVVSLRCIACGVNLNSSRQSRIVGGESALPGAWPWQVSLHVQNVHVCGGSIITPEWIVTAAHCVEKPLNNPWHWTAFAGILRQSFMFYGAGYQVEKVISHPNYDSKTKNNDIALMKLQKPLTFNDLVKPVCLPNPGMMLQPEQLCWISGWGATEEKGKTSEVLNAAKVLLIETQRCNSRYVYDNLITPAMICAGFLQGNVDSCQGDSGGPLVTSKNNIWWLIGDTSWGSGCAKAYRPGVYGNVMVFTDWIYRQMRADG
Chain of UniProt P00915 (whole entry, looked up): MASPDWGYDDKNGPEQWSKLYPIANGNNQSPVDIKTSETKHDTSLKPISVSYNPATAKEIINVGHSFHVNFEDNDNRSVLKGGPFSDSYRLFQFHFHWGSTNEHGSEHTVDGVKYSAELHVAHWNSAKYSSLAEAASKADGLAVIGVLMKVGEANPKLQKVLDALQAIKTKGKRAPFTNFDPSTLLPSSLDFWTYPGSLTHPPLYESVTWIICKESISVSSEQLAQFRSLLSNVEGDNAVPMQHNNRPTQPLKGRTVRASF
Chain of UniProt P06276 (whole entry, looked up): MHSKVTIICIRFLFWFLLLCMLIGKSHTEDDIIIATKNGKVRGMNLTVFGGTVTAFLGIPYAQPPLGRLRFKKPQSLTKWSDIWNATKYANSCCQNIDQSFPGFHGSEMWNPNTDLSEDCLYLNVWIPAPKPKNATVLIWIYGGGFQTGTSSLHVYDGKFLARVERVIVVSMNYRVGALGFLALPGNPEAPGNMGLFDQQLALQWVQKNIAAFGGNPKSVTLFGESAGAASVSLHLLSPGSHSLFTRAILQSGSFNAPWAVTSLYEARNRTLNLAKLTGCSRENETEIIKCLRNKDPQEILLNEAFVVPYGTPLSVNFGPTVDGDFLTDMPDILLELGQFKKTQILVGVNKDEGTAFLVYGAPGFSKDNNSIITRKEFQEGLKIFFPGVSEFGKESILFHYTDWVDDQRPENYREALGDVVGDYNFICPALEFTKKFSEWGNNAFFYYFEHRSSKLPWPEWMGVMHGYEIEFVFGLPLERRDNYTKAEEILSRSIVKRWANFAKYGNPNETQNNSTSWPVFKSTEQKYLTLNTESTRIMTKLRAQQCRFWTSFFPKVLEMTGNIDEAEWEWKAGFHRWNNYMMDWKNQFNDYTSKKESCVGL
Chain of UniProt Q9URB4 (whole entry, looked up): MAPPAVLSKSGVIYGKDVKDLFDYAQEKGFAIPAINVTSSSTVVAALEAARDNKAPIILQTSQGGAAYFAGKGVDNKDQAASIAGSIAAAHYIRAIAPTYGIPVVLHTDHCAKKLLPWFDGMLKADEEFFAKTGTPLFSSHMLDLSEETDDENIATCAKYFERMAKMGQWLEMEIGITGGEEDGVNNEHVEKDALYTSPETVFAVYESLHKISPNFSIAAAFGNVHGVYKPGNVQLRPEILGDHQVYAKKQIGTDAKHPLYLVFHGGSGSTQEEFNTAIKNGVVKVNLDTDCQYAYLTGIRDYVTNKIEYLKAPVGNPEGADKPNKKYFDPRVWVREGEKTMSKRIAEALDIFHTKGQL
Chain of UniProt P35462 (whole entry, looked up): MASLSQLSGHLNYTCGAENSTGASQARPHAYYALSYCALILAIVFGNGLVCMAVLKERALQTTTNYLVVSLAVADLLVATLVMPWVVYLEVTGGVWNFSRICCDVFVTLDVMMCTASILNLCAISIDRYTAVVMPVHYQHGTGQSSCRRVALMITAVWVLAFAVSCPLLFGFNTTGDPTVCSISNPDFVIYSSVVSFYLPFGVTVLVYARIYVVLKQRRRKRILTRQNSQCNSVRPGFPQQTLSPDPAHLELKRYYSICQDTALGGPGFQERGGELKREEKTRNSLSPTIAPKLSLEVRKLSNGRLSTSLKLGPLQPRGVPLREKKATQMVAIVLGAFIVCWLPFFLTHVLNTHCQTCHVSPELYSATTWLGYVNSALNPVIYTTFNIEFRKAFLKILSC
Chain of UniProt P09874 (whole entry, looked up): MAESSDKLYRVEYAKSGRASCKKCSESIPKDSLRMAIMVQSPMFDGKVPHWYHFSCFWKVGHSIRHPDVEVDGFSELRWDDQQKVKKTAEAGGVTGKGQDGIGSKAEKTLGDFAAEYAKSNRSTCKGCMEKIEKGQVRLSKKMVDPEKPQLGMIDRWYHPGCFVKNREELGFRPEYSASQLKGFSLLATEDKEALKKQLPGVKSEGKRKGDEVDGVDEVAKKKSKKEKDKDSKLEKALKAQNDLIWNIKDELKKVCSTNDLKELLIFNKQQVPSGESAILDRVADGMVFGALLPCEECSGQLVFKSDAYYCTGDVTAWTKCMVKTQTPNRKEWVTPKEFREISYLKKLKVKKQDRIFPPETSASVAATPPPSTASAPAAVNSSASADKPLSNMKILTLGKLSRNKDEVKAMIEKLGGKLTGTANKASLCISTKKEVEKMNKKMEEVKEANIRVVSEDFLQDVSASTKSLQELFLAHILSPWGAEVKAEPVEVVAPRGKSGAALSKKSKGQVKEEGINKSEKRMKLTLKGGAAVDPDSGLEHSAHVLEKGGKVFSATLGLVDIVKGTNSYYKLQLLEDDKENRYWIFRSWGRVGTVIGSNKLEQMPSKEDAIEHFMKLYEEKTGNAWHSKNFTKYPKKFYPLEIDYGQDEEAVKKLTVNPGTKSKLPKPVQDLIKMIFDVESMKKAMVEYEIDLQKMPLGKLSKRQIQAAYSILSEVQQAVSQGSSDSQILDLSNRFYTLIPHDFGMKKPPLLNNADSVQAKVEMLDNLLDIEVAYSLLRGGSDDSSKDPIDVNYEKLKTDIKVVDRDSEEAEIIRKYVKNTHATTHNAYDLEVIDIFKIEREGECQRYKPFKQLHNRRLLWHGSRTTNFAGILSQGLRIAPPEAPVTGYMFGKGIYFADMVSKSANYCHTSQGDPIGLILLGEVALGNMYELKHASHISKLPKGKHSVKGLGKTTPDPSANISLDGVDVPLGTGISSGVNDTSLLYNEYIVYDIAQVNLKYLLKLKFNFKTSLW
Chain of UniProt P21554 (whole entry, looked up): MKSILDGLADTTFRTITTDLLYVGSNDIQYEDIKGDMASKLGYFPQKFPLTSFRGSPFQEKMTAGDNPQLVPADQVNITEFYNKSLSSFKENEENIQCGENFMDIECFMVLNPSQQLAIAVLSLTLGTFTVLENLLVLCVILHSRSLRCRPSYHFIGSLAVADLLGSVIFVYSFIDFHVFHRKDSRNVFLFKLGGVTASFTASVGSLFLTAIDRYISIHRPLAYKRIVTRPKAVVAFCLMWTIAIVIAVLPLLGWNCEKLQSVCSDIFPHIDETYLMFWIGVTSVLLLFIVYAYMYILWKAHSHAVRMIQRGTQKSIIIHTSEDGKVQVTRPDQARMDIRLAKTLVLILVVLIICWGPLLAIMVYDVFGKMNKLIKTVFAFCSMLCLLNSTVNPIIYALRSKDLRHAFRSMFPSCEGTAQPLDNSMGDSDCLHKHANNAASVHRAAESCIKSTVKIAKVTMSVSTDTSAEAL
Chain of UniProt Q08210 (whole entry, looked up): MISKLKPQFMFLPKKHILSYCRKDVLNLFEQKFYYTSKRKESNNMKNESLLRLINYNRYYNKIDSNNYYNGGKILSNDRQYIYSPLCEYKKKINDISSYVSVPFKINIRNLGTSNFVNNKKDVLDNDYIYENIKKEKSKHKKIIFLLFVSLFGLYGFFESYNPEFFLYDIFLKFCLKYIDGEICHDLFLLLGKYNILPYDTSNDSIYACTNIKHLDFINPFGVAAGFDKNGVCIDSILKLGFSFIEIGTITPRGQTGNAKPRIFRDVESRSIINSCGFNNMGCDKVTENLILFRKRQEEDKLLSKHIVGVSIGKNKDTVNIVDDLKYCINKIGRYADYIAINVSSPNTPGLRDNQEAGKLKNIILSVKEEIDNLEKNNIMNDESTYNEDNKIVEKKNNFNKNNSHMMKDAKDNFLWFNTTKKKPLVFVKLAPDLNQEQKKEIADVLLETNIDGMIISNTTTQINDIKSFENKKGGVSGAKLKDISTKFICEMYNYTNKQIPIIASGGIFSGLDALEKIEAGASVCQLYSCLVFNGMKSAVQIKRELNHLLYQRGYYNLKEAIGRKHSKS

| SMILES | target | assay | test system | conditions | IC50 |
| --- | --- | --- | --- | --- | --- |
| COc1ccc(S(=O)(=O)Oc2ccc(/C=N/NS(=O)(=O)c3cc(Cl)ccc3Cl)cc2)cc1 | CA1 (Homo sapiens, UniProt P00915) | enzyme activity, inhibitor, absorbance |  |  | 499 nM |
| C[C@H](Oc1ccc(C(=O)c2ccc(F)cc2)cc1)C(=O)N1CCc2ccc(C(F)(F)F)cc21 | PFF0160c (Plasmodium falciparum, UniProt Q08210) | enzyme activity, inhibitor, absorbance |  |  | 855 nM |
| CC[C@H](C)[C@H](NC(=O)[C@@H](NC(=O)[C@H](CC(C)C)NC(=O)[C@H](C)NC(=O)[C@@H]1CCCN1C(=O)[C@H](CC(C)C)NC(=O)[C@@H](NC(=O)[C@@H]1CCCN1C(=O)[C@H](CCCCN)NC(=O)[C@H](CCCNC(=N)N)NC(=O)[C@H](CCCNC(=N)N)NC(=O)[C@H](C)NC(=O)[C@H](C)NC(=O)[C@@H](N)Cc1ccc(O)cc1)C(C)C)[C@@H](C)O)C(=O)N[C@@H](CC(N)=O)C(=O)N1CCC[C@H]1C(=O)O | Mapk1 | enzyme activity, inhibitor, fluorescence |  | pH 7.4 | 27000 nM |
| CNC(=O)C[C@H](Cc1ccc(F)cc1)NC(=O)[C@@H](Cc1ccc(Cl)cc1Cl)NC(=O)[C@H](N)Cc1ccccc1C#N | TMPRSS2 (Homo sapiens, UniProt O15393) | enzyme activity, inhibitor |  |  | > 10000 nM |
| O=C(c1cc(Cc2n[nH]c(=O)c3ccccc23)ccc1F)N1CC(CNC2CC2)C1 | PARP1 (Homo sapiens, UniProt P09874) | enzyme activity, inhibitor |  |  | 0.8 nM |
| Cc1[nH]c(C)c(S(=O)(=O)NC(C)(C)C)c1C(=O)N1CCCC1 | DRD3 (Homo sapiens, UniProt P35462) | Go activation, antagonist, BRET |  | with: dopamine | > 100000 nM |
| COC1c2cc(C(C)C)c(O)c(O)c2C23CCCC(C)(C)C2C1OC3=O (stereo not drawn) | Cholinesterase (BCHE, Homo sapiens, UniProt P06276) | enzyme activity, inhibitor |  |  | 4.81 nM |
| CC(C)C[C@H](NC(=O)[C@H](CC(=O)O)NC(=O)[C@@H](N)CC(C)C)C(=O)N1CCC[C@H]1C(=O)N[C@@H](Cc1ccccc1)C(=O)N[C@H](CCC(=O)O)C(=O)N[C@@H](Cc1ccccc1)C(N)=O | Transcriptional regulator PlcR (Bacillus thuringiensis, UniProt A0ACM8Q0N2) | reporter gene, inhibitor, lacZ reporter | 407 Cry− | 1 h, phase, late exponential, added at | 752 ± 111 nM |
| CC[C@H](C)[C@H](NC(=O)[C@H](CC(C)C)NC(=O)[C@H](C)NC(=O)[C@@H]1CCCN1C(=O)[C@H](C)NC(=O)[C@H](CCCNC(=N)N)NC(=O)[C@@H]1CCCN1C(=O)[C@H](CCCNC(=N)N)NC(=O)[C@H](CCC(N)=O)NC(=O)[C@H](CCCCN)NC(=O)[C@@H]1CCCN1C(=O)[C@H](C)NC(=O)[C@@H](N)Cc1ccc(O)cc1)C(=O)N[C@H](C(=O)N1CCC[C@H]1C(=O)N[C@H](C(=O)O)[C@@H](C)O)[C@@H](C)CC | Mapk1 | enzyme activity, inhibitor, fluorescence |  | pH 7.4 | > 200000 nM |
| C=C1NC(=O)[C@H](CO)NC(=O)[C@H](CSCC(N)=O)NC(=O)CNC(=O)[C@H](Cc2ccc(O)cc2)NC(=O)[C@H](C)NC(=O)[C@H](CO)NC(=O)[C@H](CC(=O)O)NC(=O)CNC(=O)[C@H](CC(C)C)NC(=O)[C@H](Cc2c[nH]c3ccccc23)NC(=O)[C@H](Cc2c[nH]c3ccccc23)NC(=O)c2ccc(-c3nc(C(=O)OC)cs3)nc2-c2csc1n2 | TNIK (Homo sapiens, UniProt Q9UKE5) | enzyme activity, inhibitor, ADP detection |  |  | 2000 nM |
| NCCOCCOCCNC(=O)Cc1ccc(Nc2nc(NCc3ccc(F)cc3)nc(NCC3CCCCC3)n2)cc1 | Fructose-bisphosphate aldolase (Candida albicans, UniProt Q9URB4) | enzyme activity, inhibitor, absorbance |  |  | 516 nM |
| CC12CCC3C4CCC(C#N)CC4CCC3C1CCC2O (stereo not drawn) | CNR1 (Homo sapiens, UniProt P21554) | cAMP, antagonist |  |  | 9550 nM |
